Measured values from different studies.
Lines come from different studies, so protocols differ.
NUAK1: NUAK family SNF1-like kinase 1 (NUAK1, Homo sapiens, UniProt O60285)
Sequence of UniProt O60285 (whole entry, looked up): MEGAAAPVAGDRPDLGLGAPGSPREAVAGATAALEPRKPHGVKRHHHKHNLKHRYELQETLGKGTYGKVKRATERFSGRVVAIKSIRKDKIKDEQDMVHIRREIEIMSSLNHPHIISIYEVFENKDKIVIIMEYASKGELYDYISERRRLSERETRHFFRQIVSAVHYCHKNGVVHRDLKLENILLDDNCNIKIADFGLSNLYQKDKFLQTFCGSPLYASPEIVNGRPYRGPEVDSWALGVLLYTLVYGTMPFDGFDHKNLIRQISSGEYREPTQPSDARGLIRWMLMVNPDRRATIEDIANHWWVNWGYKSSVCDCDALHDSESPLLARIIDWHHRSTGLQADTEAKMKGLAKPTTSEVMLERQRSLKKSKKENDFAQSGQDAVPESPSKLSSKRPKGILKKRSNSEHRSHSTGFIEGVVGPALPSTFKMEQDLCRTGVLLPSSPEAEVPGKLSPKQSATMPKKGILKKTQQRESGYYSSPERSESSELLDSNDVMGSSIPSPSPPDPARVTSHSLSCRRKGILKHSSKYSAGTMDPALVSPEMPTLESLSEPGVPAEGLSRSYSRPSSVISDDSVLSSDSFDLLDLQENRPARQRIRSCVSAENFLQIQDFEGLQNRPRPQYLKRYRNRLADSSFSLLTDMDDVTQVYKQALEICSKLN
UCHL1: Ubiquitin carboxyl-terminal hydrolase isozyme L1 (UCHL1, Homo sapiens, UniProt P09936)
Sequence of UniProt P09936 (whole entry, looked up): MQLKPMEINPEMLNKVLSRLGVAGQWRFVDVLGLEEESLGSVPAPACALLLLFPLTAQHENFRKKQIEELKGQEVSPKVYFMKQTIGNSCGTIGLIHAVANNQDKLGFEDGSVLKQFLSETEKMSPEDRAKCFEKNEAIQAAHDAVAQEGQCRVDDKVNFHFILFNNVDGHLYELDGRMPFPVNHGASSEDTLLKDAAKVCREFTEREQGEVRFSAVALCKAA

`C[C@@H](c1ccc(-n2cnc3c(N)ncnc32)cc1)N1CCc2nn(C)c(Cc3ccccc3)c2C1=O` gave a remaining binding of 96% (NUAK1; KINOMEscan; 0.1 µM; baseline: DMSO).
`C#CC(C)(CC)NC(=O)C(C)n1nc([N+](=O)[O-])c(Br)c1C` (centres unmarked) has a labelling of 17.2% (UCHL1; covalent, intact protein LC-MS; 12.5 µM).
For `Cc1cc(Nc2cc(N3CCN(C)CC3)nc(Sc3ccc(NC(=O)C4CC4)cc3)n2)[nH]n1`, the remaining activity was 79% (NUAK1; kinase activity, KinaseProfiler; 0.03 µM, species human; baseline: control).
`COc1cc(-c2cncc3c2CN(C)Cc2cc(N4CCNCC4)ccc2-3)cc(OC)c1OC` has a remaining activity of 91% (NUAK1; kinase activity; 1 µM, human enzyme, together with: ATP 10 µM; baseline: DMSO control).
The remaining activity of `O=C(NC1CCC1)c1ccc2nc(-c3cccc(NS(=O)(=O)NCCN4CCCCC4)c3)cn2c1` is reported as 95% (NUAK1; enzyme activity; 10 µM).
For `N#CC(=Cc1ccc(C#N)cc1)C(=O)Nc1cccc2ccccc12`, the labelling was 39% (UCHL1; covalent, intact protein LC-MS; 12.5 µM).
`COc1cc(F)ccc1-c1ncnc(Nc2cccc(C[S@](C)(=N)=O)c2)n1` has a remaining activity of 39% (NUAK1; kinase activity; 10 µM, together with: 10 µM ATP).
With `C=CC(=O)N1CCC(C(=O)NCC(=O)N2CCN(c3nc(-c4cnc(N)nc4C(F)F)nc(N4CCOCC4)n3)CC2)CC1` the remaining binding was 99% (NUAK1; KINOMEscan; 1 µM).
`O=C1NC(=O)/C(=C/c2ccc(-c3ccc(F)cc3O)o2)S1` has a remaining activity of 73% (NUAK1; enzyme activity; 10 µM).
For `CNc1ncc2c(/C=C/C(=O)N3CCC(OC)CC3)nn(Cc3cccc(C(F)(F)F)c3)c2n1`, the remaining activity was 94% (NUAK1; kinase activity, inhibitor; 1 µM; baseline: untreated control).
`C=CC(=O)N1CCC(COCC(=O)N2CCN(c3nc(-c4cnc(N)nc4C(F)F)nc(N4CCOC[C@@H]4C)n3)CC2)CC1` has a remaining binding of 100% (NUAK1; KINOMEscan; 1 µM; baseline: DMSO control).
For `CCCOc1ccc(OC)c(F)c1C(=O)c1ccc(C(=O)N[C@@H]2CNC[C@H]2NC(=O)c2ccc3[nH]ncc3c2)cc1`, the remaining activity was 5% (NUAK1; enzyme activity; 10 µM).
`CCN(CC)c1ccc(C2=NNC(=O)CC2C)cc1[N+](=O)[O-]` (centres unmarked) gave a remaining activity of 85% (NUAK1; enzyme activity, inhibitor; 10 µM; baseline: vehicle).
Under “percent of control”, `C1=C/COCc2cc(ccc2OCCN2CCCC2)Nc2nccc(n2)-c2cccc(c2)COC/1` is recorded as 39% (NUAK1; concentration not given, gene name ARK5).

Repeated from above:
`C#CC(C)(CC)NC(=O)C(C)n1nc([N+](=O)[O-])c(Br)c1C` (centres unmarked) has a labelling of 17.2% (UCHL1; covalent, intact protein LC-MS; 12.5 µM).
For `CCCOc1ccc(OC)c(F)c1C(=O)c1ccc(C(=O)N[C@@H]2CNC[C@H]2NC(=O)c2ccc3[nH]ncc3c2)cc1`, the remaining activity was 5% (NUAK1; enzyme activity; 10 µM).
